Assay results of several laboratories.
Several values in a cell are separate wells, animals, samples, runs or records. ± gives the spread as reported. Values after ≈ are worked out from the molar mass of the structure shown.

Compound	organism	test	test system	conditions	how to read	endpoint	value
Cc1nc2c(NCc3cccc(S(C)(=O)=O)c3)nccn2c1-c1ccc(O)c(F)c1	Rhinovirus C	viral replication, high-content imaging	HeLa-CDHR3 C529Y, RV-C15a-mGL	3 dpi		IC50	0.014 µM
COc1ccc(S(=O)(=O)N(CCO)c2ccccc2CN(C)C/C=C/c2ccc(Cl)cc2)cc1	mouse hepatitis virus	viral replication	nanoluciferase reporter	1 µM		inhibition	20%
Fc1ccc(C(OCCN2CCN(CCCc3ccccc3)CC2)c2ccc(F)cc2)cc1	Toxoplasma gondii	parasite growth	HFF, bradyzoite, alkaline-induced			EC90	49700 µM
Nc1ncnc2c1ncn2[C@@H]1O[C@@H]2COP(=O)(O)O[C@H]3[C@@H](O)[C@H](n4cnc5c(=O)[nH]cnc54)O[C@@H]3COP(=O)(O)O[C@H]2[C@H]1O	West Nile virus	RNA sequencing Reactome analysis, refers to: DNA Replication (R-HSA-69306)	HFF-1	concentration not given, upregulated pathways, with: West Nile virus infection	baseline: WNV-infected without compound	fold enrichment	2.7
NC(=O)c1ccc(N)nc1	human coronavirus OC43	virus-induced cell killing	MRC-5	screen		maximum inhibition	5.97%
Nc1nc2c(ncn2COCCO)c(=O)[nH]1	human alphaherpesvirus 2	viral replication, RT-qPCR	HeLa, resistant to compound			IC50	73.1 ± 1.04 µM
O=C(O)CSc1ncnc2sc(-c3cc4ccccc4s3)cc12	mouse hepatitis virus	viral replication	nanoluciferase reporter	1 µM		inhibition	-48%
COc1cc(O)c(CC=C(C)C)c(O)c1C(=O)/C=C/c1ccc(O)cc1	human coronavirus OC43	virus-induced cell killing	MRC-5	screen		maximum inhibition	15.9%
Cc1c2c(nn1C)CSCc1cc(n(C)n1)CSc1cc(c3ccccc3c1)OCCCc1c(C(=O)O)n(C)c3c-2c(Cl)ccc13	Staphylococcus aureus	label-free quantitative proteomics, refers to: SAOUHSC_00284 protein	SA113	concentration not given	baseline: untreated control	fold change	0.0361
Cc1ccc(C(=O)Nc2cccc(C(F)(F)F)c2)cc1Nc1nc(-c2cccnc2)nc2c1cnn2C	mouse hepatitis virus	viral replication	nanoluciferase reporter	1 µM		inhibition	57%
COC(=O)N[C@H](C(=O)N1CCC[C@H]1c1ncc(-c2ccc(-c3ccc(-c4cnc([C@@H]5CCCN5C(=O)[C@@H](NC(=O)OC)C(C)C)[nH]4)cc3)cc2)[nH]1)C(C)C	Hepatitis C virus		replicon cells	90% effect level, with: NS5B palm site II inhibitor, ratio 1:1		combination index	0.77
COc1c([N+](=O)[O-])oc2ccc3ccccc3c12	Salmonella enterica	REMA				MIC90	32 µg/mL (≈ 132 µM)
CC[C@H]1CN2CCc3cc(OC)c(OC)cc3[C@@H]2C[C@@H]1C[C@H]1NCCc2cc(OC)c(OC)cc21.Cl.Cl	Mus musculus	gene silencing, high-content imaging	LDR reporter GFP cells	retest run 2		maximal activity	51%
OC[C@H]1O[C@@H](n2ccc3c(SCc4ccc(F)cc4F)ncnc32)[C@H](O)[C@@H]1O	Toxoplasma gondii	[3H]uracil incorporation	human fibroblasts, RH wild type	50 µM		survival	0%
OB(O)c1csc2ccccc12	Staphylococcus aureus		USA300 wild type	10 µM	baseline: untreated	growth relative to untreated	59.9% and 71.4% and 73.6% and 71% and 76.4%
CN1CC[C@@]2(C)c3cc(OC(=O)Nc4ccccc4)ccc3N(C)[C@@H]12	Toxoplasma gondii	parasite growth	HFF, bradyzoite, glutamine-induced			EC90	32.6 µM
CC[C@H](C)[C@H](NC(=O)[C@H](C)NC(=O)[C@H](CCCCN)NC(=O)[C@H](CC(C)C)NC(=O)[C@H](C)NC(=O)[C@@H](NC(=O)[C@H](Cc1c[nH]cn1)NC(=O)[C@H](CC(C)C)NC(=O)[C@@H](NC(=O)[C@@H](NC(=O)[C@H](CCCCN)NC(=O)[C@H](C)NC(=O)[C@H](C)NC(=O)[C@H](CO)NC(=O)[C@H](CCCCN)NC(=O)[C@H](Cc1ccccc1)NC(=O)[C@@H](NC(=O)[C@H](CCCCN)NC(=O)[C@H](CC(C)C)NC(=O)[C@H](Cc1ccccc1)NC(=O)[C@H](CO)NC(=O)[C@H](CCCCN)NC(=O)[C@H](Cc1c[nH]c2ccccc12)NC(=O)[C@H](CCCCN)NC(C)=O)[C@@H](C)O)[C@@H](C)O)C(C)C)[C@@H](C)O)C(=O)N[C@@H](CO)C(=O)N[C@@H](CO)C(N)=O	Acinetobacter baumannii		ATCC 19606			MIC range	2 µg/mL (≈ 0.682 µM)
COc1cnc(OC)n2nc(NS(=O)(=O)c3c(OCC(F)F)cccc3C(F)(F)F)nc12	Amaranthus retroflexus		greenhouse	postemergence, 150 g ai/ha, 21 days		fresh weight inhibition	94.2 ± 1.93%
C[C@H]1CCC/C=C/[C@@H]2C[C@H](O)C[C@H]2[C@H](O)/C=C/C(=O)O1	Toxoplasma gondii	parasite growth	HFF, bradyzoite, glutamine-induced			EC90	0.252 µM
CC(c1cc2ccccc2s1)N(O)C(N)=O (stereo not drawn)	human coronavirus OC43	virus-induced cell killing	MRC-5	screen		maximum inhibition	13.5%
COc1ccc2ccc3oc([N+](=O)[O-])cc3c2c1Br	Mycobacteroides abscessus	REMA	ATCC 19977			MIC90	8 µg/mL (≈ 24.8 µM)
COc1cc(Nc2nc(C)cc(-c3cnn4nc(OC)ccc34)n2)cc(C(F)(F)F)c1	mouse hepatitis virus	viral replication	nanoluciferase reporter	1 µM		inhibition	1%
CCCCCC[C@H]1C(=O)O[C@H](C)[C@H](NC(=O)c2cccc(NC=O)c2O)C(=O)O[C@@H](C)[C@@H]1OC(=O)CC(C)C	human coronavirus OC43	virus-induced cell killing	MRC-5	screen		maximum inhibition	5.63%
CCc1c([N+](=O)[O-])oc2ccc3ccccc3c12	Salmonella enterica	REMA				MIC90	1 µg/mL (≈ 4.15 µM)

Compound	organism	test	test system	conditions	how to read	endpoint	value
OC[C@H]1O[C@@H](n2ccc3c(O)ncnc32)[C@H](O)[C@@H]1O	Toxoplasma gondii	[3H]uracil incorporation	human fibroblasts, adenosine kinase-deficient	50 µM		parasite survival	100%
O=C1[C@H](CC[C@H](O)c2ccc(F)cc2)[C@@H](c2ccc(O)cc2)N1c1ccc(F)cc1	human coronavirus OC43	virus-induced cell killing	MRC-5	maximum over 10 doses		maximum inhibition	0.482%
COc1ccc2c(ccc3oc([N+](=O)[O-])c(OC)c32)c1	Mycobacteroides abscessus	REMA	ATCC 19977			MIC90	> 32 µg/mL
COc1ccc([C@@]23Oc4cc(OC)cc(OC)c4[C@@]24N=C(C)N[C@@]4(O)[C@H](C(=O)N(C)OC)[C@H]3c2ccccc2)cc1	Hepatitis E virus	viral replication	HepG2 HEV-3 replicon, genotype 3	48 h		EC50	0.00114 µM
CN[C@@H](C)C(=O)N[C@H](C(=O)N1CCC[C@H]1C(=O)N[C@H](C(=O)NCCCCCCNC(=O)[C@@H](NC(=O)[C@@H]1CCCN1C(=O)[C@@H](NC(=O)[C@H](C)NC)C1CCCCC1)C(c1ccccc1)c1ccccc1)C(c1ccccc1)c1ccccc1)C1CCCCC1	human coronavirus OC43	virus-induced cell killing	MRC-5	maximum over 10 doses		maximum inhibition	0%
CCCCc1ccc(CNc2nc(N(C)C)nc(N(C)C)c2/N=N/c2ccc(Cl)cc2)cc1	Ostrinia furnacalis	leaf dipping		12.5 mg/L		mortality	46.7%
COC(=O)[C@@H]1[C@@H](c2ccccc2)[C@]2(c3ccc(OC)cc3)Oc3cc(OC)cc(OC)c3[C@@]23N=C(C)N[C@@]13O	Hepatitis E virus	viral replication	HepG2 HEV-1 replicon, genotype 1	48 h		EC50	0.00098 µM
C[C@H]1COc2c(N3CCN(C)CC3)c(F)cc3c(=O)c(C(=O)O)cn1c23	Staphylococcus, coagulase-negative					MIC90	16 µg/mL (≈ 44.3 µM)
COc1ccc(C[C@H](NC(=O)[C@H](C)NC(=O)CN2CCOCC2)C(=O)N[C@@H](Cc2ccccc2)C(=O)C2(C)CO2)cc1 (stereo in doubt)	Plasmodium falciparum	parasite growth	Dd2 R539T, artemisinin-resistant	72 h, ring stage		IC50	0.0133 ± 0.0021 µM
O=[N+]([O-])c1cc2c(ccc3cc(Br)ccc32)o1	Mycobacteroides abscessus	REMA	ATCC 19977			MIC90	> 32 µg/mL
N=C(N)NCCC[C@H](NC(=O)[C@H](Cc1c[nH]c2ccccc12)NC(=O)[C@H](CCCNC(=N)N)NC(=O)[C@H](Cc1c[nH]c2ccccc12)NC(=O)[C@H](Cc1c[nH]c2ccccc12)NC(=O)[C@H](Cc1c[nH]c2ccccc12)NC(=O)[C@H](CCCNC(=N)N)NC(=O)[C@H](Cc1c[nH]c2ccccc12)NC(=O)[C@@H](N)CCCNC(=N)N)C(=O)N[C@@H](Cc1c[nH]c2ccccc12)C(N)=O	Candida albicans	broth microdilution	CGMCC 2.209, RPMI 1640-MOPS	48 h, 30 °C, with: CaCl2 2 mM		MIC	32 µM (≈ 56.3 µg/mL)
CCOC(=O)COc1ccc2ccc3oc([N+](=O)[O-])cc3c2c1	Salmonella enterica	REMA				MIC90	0.5 µg/mL (≈ 1.59 µM)
COc1cc2c(cc1O)CC[C@@H]1[C@@H]2CC[C@]2(C)[C@@H](O)CC[C@@H]12	human coronavirus OC43	virus-induced cell killing	MRC-5	screen		maximum inhibition	2.11%
Cc1ccc(CSc2ncnc3c2ccn3[C@@H]2O[C@H](CO)[C@@H](O)[C@H]2O)cc1	Toxoplasma gondii	[3H]uracil incorporation	human fibroblasts, RH wild type	10 µM		survival	17.4%
C[C@@H](NC(=O)Nc1cc2[nH]ncc2c(CO)n1)c1ccccc1	mouse hepatitis virus	viral replication	nanoluciferase reporter	1 µM		inhibition	27%
Cn1c(=O)ccc2ccc(F)c(CCNC[C@H]3CN(c4cnc5c(n4)NC(=O)CO5)C(=O)O3)c21	Klebsiella oxytoca					MIC50	0.25 µg/mL (≈ 0.534 µM)
OC[C@H]1O[C@@H](n2ccc3c(SCc4ccc(Cl)cc4Cl)ncnc32)[C@H](O)[C@@H]1O	Toxoplasma gondii	[3H]uracil incorporation	human fibroblasts, RH wild type	5 µM		survival	82.3%
N=C(N)NCCC[C@H](NC(=O)CN)C(=O)N[C@@H](Cc1c[nH]c2ccccc12)C(=O)N[C@@H](CCCNC(=N)N)C(=O)N[C@@H](Cc1c[nH]c2ccccc12)C(=O)N[C@@H](Cc1c[nH]c2ccccc12)C(=O)N[C@@H](Cc1c[nH]c2ccccc12)C(=O)N[C@@H](CCCNC(=N)N)C(=O)N[C@@H](Cc1c[nH]c2ccccc12)C(=O)N[C@@H](CCCNC(=N)N)C(=O)N[C@@H](Cc1ccccc1)C(N)=O	Candida albicans	broth microdilution	CGMCC 2.209, RPMI 1640-MOPS	48 h, 30 °C, with: CaCl2 2 mM		MIC	16 µM (≈ 28.4 µg/mL)
CCC[C@@H]1C[C@@H](C(=O)N[C@@H]([C@H]2O[C@H](SC)[C@H](O)[C@@H](O)[C@H]2O)[C@H](C)Cl)N(C)C1	Staphylococcus, coagulase-negative					MIC90	> 32 µg/mL
COc1cc2c3c(c1OC)-c1ccccc1C[C@H]3N(C)CC2	Toxoplasma gondii	parasite growth	HFF, bradyzoite, glutamine-induced			EC90	21.7 µM
CN1CCN(Cc2cc(NC(=O)c3ccc4c(c3)CN(c3ccccc3)CC4)cc(C(F)(F)F)c2)CC1	mouse hepatitis virus	viral replication	nanoluciferase reporter	1 µM		inhibition	5%
Cc1ccc2c(=O)c3cccc(CC(=O)O)c3oc2c1C	human coronavirus OC43	virus-induced cell killing	MRC-5	maximum over 10 doses		maximum inhibition	0%
C[C@@H]1C[C@@H]([C@H](O)CC2CC(=O)NC(=O)C2)C(=O)[C@@H](C)C1	Mus musculus	gene silencing, high-content imaging	LDR reporter GFP cells	30 h, retest, mean of two runs		Emax	49%
OC[C@H]1O[C@@H](n2ccc3c(SCc4ccc(Cl)c(Cl)c4)ncnc32)[C@H](O)[C@@H]1O	Toxoplasma gondii	[3H]uracil incorporation	human fibroblasts, RH wild type	25 µM		survival	13.4%

Some of these lines once more:
Compound	organism	test	test system	conditions	how to read	endpoint	value
OC[C@H]1O[C@@H](n2ccc3c(SCc4ccc(Cl)cc4Cl)ncnc32)[C@H](O)[C@@H]1O	Toxoplasma gondii	[3H]uracil incorporation	human fibroblasts, RH wild type	5 µM		survival	82.3%
COc1ccc([C@@]23Oc4cc(OC)cc(OC)c4[C@@]24N=C(C)N[C@@]4(O)[C@H](C(=O)N(C)OC)[C@H]3c2ccccc2)cc1	Hepatitis E virus	viral replication	HepG2 HEV-3 replicon, genotype 3	48 h		EC50	0.00114 µM
O=[N+]([O-])c1cc2c(ccc3cc(Br)ccc32)o1	Mycobacteroides abscessus	REMA	ATCC 19977			MIC90	> 32 µg/mL
